Assay results gathered from unrelated publications.
Protocols differ between the studies behind these lines. ± gives the spread as reported.
FGFR1: Fibroblast growth factor receptor 1 (FGFR1, Homo sapiens, UniProt P11362)
UniProt P11362, sequence (whole entry, looked up): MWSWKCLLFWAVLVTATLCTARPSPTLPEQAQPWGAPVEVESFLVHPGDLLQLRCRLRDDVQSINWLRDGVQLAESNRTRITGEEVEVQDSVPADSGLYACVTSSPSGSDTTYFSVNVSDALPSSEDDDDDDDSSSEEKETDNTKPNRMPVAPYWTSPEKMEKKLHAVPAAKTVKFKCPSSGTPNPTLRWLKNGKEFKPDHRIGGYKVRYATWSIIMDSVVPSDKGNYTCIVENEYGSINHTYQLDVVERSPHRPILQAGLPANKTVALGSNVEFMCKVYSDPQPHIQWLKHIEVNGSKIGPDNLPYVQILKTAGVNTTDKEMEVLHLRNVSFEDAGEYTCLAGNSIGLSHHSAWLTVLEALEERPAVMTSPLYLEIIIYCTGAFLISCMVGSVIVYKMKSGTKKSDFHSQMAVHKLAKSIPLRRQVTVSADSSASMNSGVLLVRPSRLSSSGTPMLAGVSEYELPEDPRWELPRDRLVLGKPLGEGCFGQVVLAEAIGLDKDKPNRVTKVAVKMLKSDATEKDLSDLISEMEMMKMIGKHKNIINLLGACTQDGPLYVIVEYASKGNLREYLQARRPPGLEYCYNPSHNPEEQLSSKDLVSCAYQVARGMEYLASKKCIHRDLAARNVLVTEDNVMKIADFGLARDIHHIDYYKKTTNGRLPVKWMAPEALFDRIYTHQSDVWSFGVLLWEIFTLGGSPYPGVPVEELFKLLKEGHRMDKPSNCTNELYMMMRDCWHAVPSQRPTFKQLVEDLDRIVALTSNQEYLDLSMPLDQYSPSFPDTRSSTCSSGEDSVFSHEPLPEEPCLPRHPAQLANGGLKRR
UniProt P40306, sequence (whole entry, looked up): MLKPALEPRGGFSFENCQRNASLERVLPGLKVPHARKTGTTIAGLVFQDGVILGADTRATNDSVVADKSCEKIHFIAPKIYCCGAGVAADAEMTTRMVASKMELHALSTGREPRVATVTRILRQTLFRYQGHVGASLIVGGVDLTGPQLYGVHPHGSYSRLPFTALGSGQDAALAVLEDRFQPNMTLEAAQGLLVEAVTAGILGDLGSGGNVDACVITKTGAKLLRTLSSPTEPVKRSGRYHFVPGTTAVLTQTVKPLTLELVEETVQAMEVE
UniProt P49720, sequence (whole entry, looked up): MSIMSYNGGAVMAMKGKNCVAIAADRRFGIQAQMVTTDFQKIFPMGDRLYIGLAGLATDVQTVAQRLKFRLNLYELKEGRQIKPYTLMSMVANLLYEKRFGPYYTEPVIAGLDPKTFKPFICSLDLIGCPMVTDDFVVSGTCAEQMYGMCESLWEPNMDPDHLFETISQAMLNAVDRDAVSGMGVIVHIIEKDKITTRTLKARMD
UniProt Q96JM7, sequence (whole entry, looked up): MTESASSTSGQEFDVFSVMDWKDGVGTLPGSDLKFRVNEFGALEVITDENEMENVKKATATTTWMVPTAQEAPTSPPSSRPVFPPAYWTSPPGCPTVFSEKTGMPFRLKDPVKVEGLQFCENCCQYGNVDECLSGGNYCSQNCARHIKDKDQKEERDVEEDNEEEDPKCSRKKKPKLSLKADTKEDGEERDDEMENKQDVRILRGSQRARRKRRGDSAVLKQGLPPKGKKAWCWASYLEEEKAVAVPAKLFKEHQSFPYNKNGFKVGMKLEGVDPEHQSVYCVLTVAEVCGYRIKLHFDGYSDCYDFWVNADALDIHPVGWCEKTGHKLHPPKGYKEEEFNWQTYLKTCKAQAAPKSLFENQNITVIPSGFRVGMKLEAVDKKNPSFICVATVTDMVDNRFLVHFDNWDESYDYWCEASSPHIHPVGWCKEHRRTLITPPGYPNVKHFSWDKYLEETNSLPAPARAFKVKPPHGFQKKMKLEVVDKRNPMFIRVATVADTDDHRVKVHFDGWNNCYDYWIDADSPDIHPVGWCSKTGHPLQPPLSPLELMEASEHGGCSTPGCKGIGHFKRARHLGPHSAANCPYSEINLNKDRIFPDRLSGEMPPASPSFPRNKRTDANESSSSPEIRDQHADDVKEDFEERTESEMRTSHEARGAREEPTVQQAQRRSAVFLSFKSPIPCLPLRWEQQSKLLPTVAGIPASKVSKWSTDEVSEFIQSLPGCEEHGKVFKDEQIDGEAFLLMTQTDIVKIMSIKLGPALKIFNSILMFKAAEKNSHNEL
UniProt O35433, sequence (whole entry, looked up): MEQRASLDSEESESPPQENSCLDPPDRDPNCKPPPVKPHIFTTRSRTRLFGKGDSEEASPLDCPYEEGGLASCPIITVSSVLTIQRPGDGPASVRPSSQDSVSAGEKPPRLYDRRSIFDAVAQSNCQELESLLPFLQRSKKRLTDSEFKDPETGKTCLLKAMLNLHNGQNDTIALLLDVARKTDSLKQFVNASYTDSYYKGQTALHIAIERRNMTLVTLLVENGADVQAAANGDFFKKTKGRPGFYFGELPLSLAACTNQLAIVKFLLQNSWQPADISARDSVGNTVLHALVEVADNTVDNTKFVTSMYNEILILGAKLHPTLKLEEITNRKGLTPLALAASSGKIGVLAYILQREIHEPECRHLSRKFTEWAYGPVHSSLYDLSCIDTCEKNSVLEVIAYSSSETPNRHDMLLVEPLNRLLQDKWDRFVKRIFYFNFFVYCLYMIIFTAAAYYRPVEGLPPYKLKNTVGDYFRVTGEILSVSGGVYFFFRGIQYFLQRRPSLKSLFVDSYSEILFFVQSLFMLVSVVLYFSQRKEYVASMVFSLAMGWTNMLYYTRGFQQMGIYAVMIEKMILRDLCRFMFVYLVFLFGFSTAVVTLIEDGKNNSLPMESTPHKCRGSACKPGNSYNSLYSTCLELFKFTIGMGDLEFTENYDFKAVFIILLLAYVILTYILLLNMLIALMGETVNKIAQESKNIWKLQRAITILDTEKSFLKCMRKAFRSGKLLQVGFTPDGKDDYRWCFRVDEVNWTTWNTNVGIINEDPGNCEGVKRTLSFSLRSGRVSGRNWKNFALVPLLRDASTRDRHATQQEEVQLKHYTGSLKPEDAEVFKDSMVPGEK
UniProt P28845, sequence (whole entry, looked up): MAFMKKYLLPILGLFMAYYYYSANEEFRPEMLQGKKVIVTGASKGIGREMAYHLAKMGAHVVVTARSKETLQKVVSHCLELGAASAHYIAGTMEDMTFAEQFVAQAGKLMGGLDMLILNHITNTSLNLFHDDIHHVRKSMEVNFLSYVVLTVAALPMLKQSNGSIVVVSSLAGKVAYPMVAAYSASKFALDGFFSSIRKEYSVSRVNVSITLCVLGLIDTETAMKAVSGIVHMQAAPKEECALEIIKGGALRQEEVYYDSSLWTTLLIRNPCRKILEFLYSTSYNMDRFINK
UniProt P07237, sequence (whole entry, looked up): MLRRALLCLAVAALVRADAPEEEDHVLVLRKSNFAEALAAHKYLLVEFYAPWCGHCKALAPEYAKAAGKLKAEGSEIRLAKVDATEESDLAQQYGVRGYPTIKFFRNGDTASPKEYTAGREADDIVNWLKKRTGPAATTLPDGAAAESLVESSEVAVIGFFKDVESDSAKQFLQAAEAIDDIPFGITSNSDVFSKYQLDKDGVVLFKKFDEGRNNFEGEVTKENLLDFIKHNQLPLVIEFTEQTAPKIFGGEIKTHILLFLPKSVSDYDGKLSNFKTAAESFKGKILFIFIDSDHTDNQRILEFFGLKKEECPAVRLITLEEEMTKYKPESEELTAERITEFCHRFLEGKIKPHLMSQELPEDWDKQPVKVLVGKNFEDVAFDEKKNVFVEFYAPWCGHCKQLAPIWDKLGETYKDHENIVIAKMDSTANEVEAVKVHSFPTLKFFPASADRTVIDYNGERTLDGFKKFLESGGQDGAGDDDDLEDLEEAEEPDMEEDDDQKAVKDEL
UniProt P31424, sequence (whole entry, looked up): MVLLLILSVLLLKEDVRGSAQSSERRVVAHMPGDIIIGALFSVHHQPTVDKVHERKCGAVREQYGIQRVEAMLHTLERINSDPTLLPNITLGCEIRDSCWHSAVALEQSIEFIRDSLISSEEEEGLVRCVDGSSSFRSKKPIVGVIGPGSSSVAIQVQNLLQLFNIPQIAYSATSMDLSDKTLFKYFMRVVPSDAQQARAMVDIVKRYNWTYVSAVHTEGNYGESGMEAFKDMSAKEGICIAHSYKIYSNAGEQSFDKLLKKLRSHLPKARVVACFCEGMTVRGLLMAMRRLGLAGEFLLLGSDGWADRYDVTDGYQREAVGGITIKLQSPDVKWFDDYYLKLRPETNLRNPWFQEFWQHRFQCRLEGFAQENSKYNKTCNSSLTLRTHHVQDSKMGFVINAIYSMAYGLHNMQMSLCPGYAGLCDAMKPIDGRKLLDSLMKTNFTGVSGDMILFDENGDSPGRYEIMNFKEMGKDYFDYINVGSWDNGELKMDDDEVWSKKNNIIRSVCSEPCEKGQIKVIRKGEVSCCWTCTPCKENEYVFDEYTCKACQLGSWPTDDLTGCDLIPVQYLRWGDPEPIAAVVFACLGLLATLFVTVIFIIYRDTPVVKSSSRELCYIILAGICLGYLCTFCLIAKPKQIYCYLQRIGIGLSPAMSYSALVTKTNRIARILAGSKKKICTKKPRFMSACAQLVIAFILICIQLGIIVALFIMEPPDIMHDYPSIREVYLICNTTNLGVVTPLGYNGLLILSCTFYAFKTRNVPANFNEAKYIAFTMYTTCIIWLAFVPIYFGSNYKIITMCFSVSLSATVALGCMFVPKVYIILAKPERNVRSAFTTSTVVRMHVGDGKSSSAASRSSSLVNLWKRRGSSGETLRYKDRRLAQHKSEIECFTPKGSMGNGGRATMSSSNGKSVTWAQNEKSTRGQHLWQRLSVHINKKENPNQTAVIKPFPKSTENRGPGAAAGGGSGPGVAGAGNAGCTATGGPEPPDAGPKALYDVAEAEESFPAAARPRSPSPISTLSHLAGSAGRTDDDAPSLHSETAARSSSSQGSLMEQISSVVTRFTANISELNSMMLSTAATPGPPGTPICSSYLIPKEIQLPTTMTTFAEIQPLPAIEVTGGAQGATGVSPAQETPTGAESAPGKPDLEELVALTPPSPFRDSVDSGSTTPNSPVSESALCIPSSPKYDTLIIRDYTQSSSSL

Cc1ccc([C@H]2N[C@H](C(=O)O)Cc3c2[nH]c2ccccc32)c(C)c1 — IC50 (MEP cytidylyltransferase IspD (Plasmodium falciparum, UniProt Q8I273); enzyme activity, inhibitor, fluorimetric pyrophosphate; 60 nM enzyme): ~1 µM
Cc1ccc(-c2nnc3ccc(N4CCN(C(=O)c5ccc(Br)o5)CC4)nn23)cc1 — IC50 (Chrm1 (Rattus norvegicus, UniProt P08482); calcium mobilization, antagonist; CHO expressing rat M1): 4.09 µM
O=C(CS(=O)(=O)c1cccs1)C12CC3CC(CC(C3)C1)C2 — IC50 (HSD11B1 (Homo sapiens, UniProt P28845); enzyme activity in cells, inhibitor): 0.667 µM
O=C(Nc1cc(Cl)cc(Cl)c1)Nc1cccc(NCc2cccnc2)c1 — IC50 (DDR1 (Homo sapiens, UniProt Q08345); enzyme activity, inhibitor, mobility shift): 1.24 µM
COC(=O)C1CN1S(=O)(=O)c1ccc2c(C=O)c(N(C)C)ccc2c1 (centres unmarked) — IC50 (P4HB (Homo sapiens, UniProt P07237); enzyme activity, inhibitor, absorbance; pH 7.6): 0.64 µM
COc1cc(OC)cc(-c2nc(Nc3nc4ccccc4o3)ncc2C#N)c1 — IC50 (Grm5 (Rattus norvegicus, UniProt P31424); calcium signal, antagonist): > 10 µM
CN(C)CCCNC(=O)c1cccc(Br)c1 — IC50 (Lethal(3)malignant brain tumor-like protein 3 (Homo sapiens, UniProt Q96JM7); methyl-lysine reader binding, inhibitor, AlphaScreen): > 100 µM
Cc1nc(NC(=O)N2CCCC2)sc1-c1csc(C(C)(C)C)n1 — IC50 (PI4KA (Homo sapiens, UniProt P42356); enzyme activity, inhibitor): > 10 µM
CC(C)NC(=O)[C@H](CCc1ccccc1)NC(=O)[C@H](CC(=O)NCC(C)(C)C)NC(=O)CCc1ccccc1 — IC50 (Proteasome subunit beta type-10 / Proteasome subunit beta type-3 (Homo sapiens, UniProt P40306+P49720); inhibitor): > 100 µM
Fc1ccc(/C=C/N=c2\oc3ccccc3cc2-c2ccccc2)cc1 — IC50 (PTGS2 (Homo sapiens, UniProt P35354); enzyme activity, inhibitor): 0.014 µM
CC(c1ccccc1)n1c(S(=O)(=O)O)nc2ccccc21 (centres unmarked) — IC50 (TDO2 (Homo sapiens, UniProt P48775); inhibitor; added: L-tryptophan 400 µM): 204 µM
CC[C@H](C)[C@H](NC(=O)[C@H](CO)NC(=O)[C@H](Cc1ccc(O)cc1)NC(=O)[C@H](CC(=O)O)NC(=O)[C@H](CO)NC(=O)[C@@H](NC(=O)[C@H](Cc1ccccc1)NC(=O)[C@@H](NC(=O)CNC(=O)[C@H](CCC(=O)O)NC(=O)[C@H](C)NC(=O)[C@@H](N)Cc1ccc(O)cc1)[C@@H](C)O)[C@@H](C)CC)C(=O)N[C@@H](C)C(=O)N[C@@H](CCSC)C(=O)N[C@@H](CC(=O)O)C(=O)N[C@@H](CCCCN)C(=O)N[C@H](C(=O)N[C@@H](CCCNC(=N)N)C(=O)N[C@@H](CCC(N)=O)C(=O)N[C@@H](CCC(N)=O)C(=O)N[C@@H](CC(=O)O)C(=O)N[C@@H](Cc1ccccc1)C(=O)N[C@H](C(=O)N[C@@H](CC(N)=O)C(=O)N[C@@H](Cc1c[nH]c2ccccc12)C(=O)N[C@@H](CC(C)C)C(=O)N[C@@H](CC(C)C)C(=O)N[C@@H](C)C(=O)N[C@@H](CCC(N)=O)C(=O)N[C@@H](CCCNC(=N)N)C(=O)NCC(=O)N[C@@H](CCCCN)C(=O)N[C@@H](CCCCN)C(=O)N[C@@H](CO)C(=O)N[C@@H](CC(=O)O)C(=O)N[C@@H](Cc1c[nH]c2ccccc12)C(=O)N[C@@H](CCCCN)C(=O)N[C@@H](Cc1c[nH]cn1)C(=O)N[C@@H](CC(N)=O)C(=O)N[C@H](C(=O)N[C@H](C(=O)N[C@@H](CCC(N)=O)C(=O)O)[C@@H](C)O)[C@@H](C)CC)C(C)C)[C@@H](C)CC — IC50 (GIPR (Homo sapiens, UniProt P48546); ligand displacement in cells, radioligand): 0.002 µM
CC[C@H](C)[C@H](NC(=O)[C@H](CO)NC(=O)[C@@H](Cc1cccnc1)NC(=O)[C@@H](Cc1ccc(Cl)cc1)NC(=O)[C@@H](Cc1ccc2ccccc2c1)NC(C)=O)C(=O)N[C@H](CCCCNC(C)C)C(=O)N[C@@H](CC(C)C)C(=O)N[C@@H](CCCCNC(C)C)C(=O)N1CCC[C@H]1C(=O)N[C@H](C)C(N)=O — IC50 (Gonadotropin-releasing hormone receptor III (Gallus gallus, UniProt Q5EFE0); inositol phosphate production, antagonist; COS-7 transfected; added: GnRH-II 1 nM): 3.89 ± 2.03 µM
COc1cc2nccc(Oc3ccc(NC(=S)NC4CC4)c(Cl)c3)c2cc1C(=O)NC1CC1 — IC50 (FGFR1): 6.8 µM
CCC1(CC)C[C@@H](NC(=O)Nc2cccc3c(C)nccc23)c2cc(F)ccc2O1 — IC50 (Trpv1 (Rattus norvegicus, UniProt O35433); calcium signal, fluorescence; pH 5): > 37.5 µM
CC(C)(C)C(=O)Nc1ccc2[nH]c(CN3CCC(N(CCCN4CCOCC4)CC4OC(n5cnc6c(N)ncnc65)C(O)C4O)CC3)nc2c1 (centres unmarked) — IC50 (DOT1L (Homo sapiens, UniProt Q8TEK3); enzyme activity, inhibitor, TR-FRET): 2.08 µM
COc1cc2nccc(Oc3ccc(NC(=S)N4CCC(F)(F)C4)c(Cl)c3)c2cc1C(N)=O — IC50 (FGFR1): 0.476 µM

Some of these lines once more:
Cc1ccc([C@H]2N[C@H](C(=O)O)Cc3c2[nH]c2ccccc32)c(C)c1 — IC50 (MEP cytidylyltransferase IspD (Plasmodium falciparum, UniProt Q8I273); enzyme activity, inhibitor, fluorimetric pyrophosphate; 60 nM enzyme): ~1 µM
